Measurements collected from several papers.
Parts stem from different laboratories: compare values within a part only. Values joined by “and” are separate records of one study, mostly repeats; a detail may differ.

Series 1
Structure (SMILES): Cc1ccc(O)c(C)c1-c1cnc2[nH]c(-c3cnc(N)nc3)cc2c1C#N
PKMYT1: Membrane-associated tyrosine- and threonine-specific cdc2-inhibitory kinase (PKMYT1, Homo sapiens, UniProt Q99640)
Chain of UniProt Q99640 (whole entry, looked up): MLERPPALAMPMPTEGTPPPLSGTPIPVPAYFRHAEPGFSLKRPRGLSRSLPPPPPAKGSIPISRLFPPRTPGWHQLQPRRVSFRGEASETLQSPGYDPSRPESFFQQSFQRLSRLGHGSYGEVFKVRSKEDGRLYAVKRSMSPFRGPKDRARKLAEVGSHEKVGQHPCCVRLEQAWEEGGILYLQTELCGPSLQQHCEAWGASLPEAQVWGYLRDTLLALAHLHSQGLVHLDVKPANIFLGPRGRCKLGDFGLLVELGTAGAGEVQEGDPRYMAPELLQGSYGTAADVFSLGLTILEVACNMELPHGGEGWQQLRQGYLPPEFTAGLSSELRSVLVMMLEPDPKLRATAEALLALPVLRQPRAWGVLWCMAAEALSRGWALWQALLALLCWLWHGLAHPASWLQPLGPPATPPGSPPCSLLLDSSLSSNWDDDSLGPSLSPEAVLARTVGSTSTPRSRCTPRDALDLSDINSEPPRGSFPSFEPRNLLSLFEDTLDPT
For HCC1569; automated capillary immunoblot, refers to: CDK1 phospho-Thr14; 4.12 nM: inhibition read 15.8%.
It gave -2.27% for inhibition (MKN-1; cell proliferation; 1.524 nM).
It gave -1.23% for inhibition (HCC1569; cell proliferation; 4.57 nM).
It gave -1.39% and -3.07% for inhibition (PKMYT1; 5.1e-05 µM).
For HuCCT-1; cell proliferation; 4.57 nM: inhibition read -0.94%.
It gave 0.676% and 7.54% for inhibition (PKMYT1; 0.0004572 µM).
The inhibition was 11.7% (HCC1569; cell proliferation; 123.46 nM).
It gave 68.1% for inhibition (PKMYT1; cell-free assay, TR-FRET; 4.12 nM).
For PKMYT1; enzyme activity, inhibitor; 460 pM: inhibition read 13.1%.
It gave 87% for inhibition (PKMYT1; enzyme activity, inhibitor; 4.12 nM).
It gave -2.3% for inhibition (MKN-1; cell proliferation; 4.572 nM).
It gave 43.4% for inhibition (HCC1569; automated capillary immunoblot, refers to: CDK1 phospho-Thr14; 37.04 nM).
For HCC1806; cell proliferation; 1.524 nM: inhibition read -1.46%.
For U-251 MG; cell growth; 10000 nM: inhibition read 77.4%.

Series 2
Compound: CCN1/C(=C/C=C2\CCCC(/C=C/C3=[N+](CC)c4ccccc4C3(C)C)=C2NCCCCCCCCN2CCC(Nc3nc4ccccc4n3Cc3ccc(F)cc3)CC2)C(C)(C)c2ccccc21
Cell line: U-87 MG
Tested at: concentration not given
Relative to: DMSO
refers to: RASD2 mRNA — “log2 fold change”: -1.39.
refers to: RAPGEFL1 mRNA — “log2 fold change”: -1.23.
It gave -1.25 for “log2 fold change” (refers to: HSPA2 mRNA).
refers to: CHN1 mRNA — “log2 fold change”: -1.19.
The “log2 fold change” was -1.36 (refers to: MATN3 mRNA).
It gave -1.12 for “log2 fold change” (refers to: RARG mRNA).
refers to: ADAMTS5 mRNA — “log2 fold change”: 3.6.
It gave -0.892 for “log2 fold change” (refers to: ANP32A mRNA).
It gave -0.941 for “log2 fold change” (refers to: PPIC mRNA).
For refers to: NRM: “log2 fold change” read -2.07.
It gave -1.15 for “log2 fold change” (refers to: MCAM mRNA).

Series 3
SMILES: Cc1ncsc1-c1ccc(C(CO)NC(=O)C2CC(O)CN2C(=O)C(C(C)C)n2cc(-c3ccc(COc4c(-c5c(C)c(F)cc6[nH]ncc56)c(C5CC5)cc5c(N6CC7CC6CN7)nc(OC6CCOCC6)nc45)cc3)nn2)cc1 (stereo not drawn)
mouse, PK-59 xenograft; subcutaneous, 30 mg/kg once daily, day 4 — tumour volume: 142 mm3 and 158 mm3 and 130 mm3 and 134 mm3.
KP-4 xenograft, mouse; 30 mg/kg twice weekly, day 14 — tumour volume: 440 mm3 and 262 mm3 and 250 mm3 and 313 mm3 and 336 mm3.
It gave 209 mm3 and 206 mm3 and 155 mm3 and 195 mm3 and 135 mm3 for tumour volume (ASPC1 xenograft, mouse; 30 mg/kg twice weekly, day 4).
For KP-4 xenograft, mouse; 30 mg/kg twice weekly, day 11: tumour volume read 294 mm3 and 220 mm3 and 248 mm3 and 206 mm3 and 299 mm3.
It gave 241 mm3 and 215 mm3 and 240 mm3 and 262 mm3 and 206 mm3 for tumour volume (PK-1 xenograft, mouse; 30 mg/kg once weekly, day 14).
For GP5d xenograft, mouse; 30 mg/kg twice weekly, day 11: tumour volume read 96.9 mm3 and 177 mm3 and 149 mm3 and 109 mm3 and 112 mm3.
For mouse, lung LXFA sample B PDX; 30 mg/kg twice weekly, day 0: tumour volume read 166 mm3 and 54 mm3 and 62.4 mm3 and 95.5 mm3 and 160 mm3 and 64.3 mm3 and 240 mm3 and 228 mm3.

Mixed results
For `COCC1CC2C(CCC3(C)C(O)CCC23)c2ccc(O)cc21` (stereo not drawn), the expression ratio was 1 (A549; DNA microarray, refers to: CCL22; concentration not given; relative to: untreated A549 cells).

Repeated from above (series 2):
It gave -0.892 for “log2 fold change” (refers to: ANP32A mRNA).
It gave -0.941 for “log2 fold change” (refers to: PPIC mRNA).
For refers to: NRM: “log2 fold change” read -2.07.
refers to: RASD2 mRNA — “log2 fold change”: -1.39.
